Results of several laboratories.
Each numbered part is a random draw from the data of one study; scales do not carry over between parts.

Study 1
Target: Interferon regulatory factor 5, full length, phosphomimetic (IRF5, Homo sapiens, UniProt Q13568-2, residues 1-514, K96S/S451D/S453D/S456D/S462D)
Technique: protein-binding microarray
Form: double-stranded DNA, one strand shown
Sample: in vitro
Concentration: 250 nM
Setting: 60-bp whole probe
Added: salmon DNA 0.4 mg/ml
Reference: random background probes
Reading: higher = stronger binding
Constant ends, left off below: GCCTAGCAC … GTCTTGATTCGCTTGACGCTGCTG
Sequence	log fluorescence
TTAAGTTTCGACACTGGGTTAGTGCTA	7.82 z-score
TCACATTCACCTGTCGTACTGTGCTAG	0.495 z-score
GAGGGTATCGGGACTGGGGACGTGCTA	0.535 z-score
GACGGACTGCTTCACCTGACGTGCTAG	-0.496 z-score
TACGATATCAGACTGGAGACGTGCTAG	0.38 z-score
GACGGACTGGGACTGGCGACGTGCTAG	-0.75 z-score
TCAATCTTAGATATTAAACTGTGCTAG	0.71 z-score
TCAAGTATGACTCTGCCACTGTGCTAG	-0.173 z-score
TTGGGTATCGGGTATCGGTTAGTGCTA	6.11 z-score
TCAGGTATAGCACTAAGACTGTGCTAG	-0.167 z-score
GACGATATCAGACAGGAGACGTGCTAG	0.573 z-score
CTAGGACTGCTTATCCTTTAGTGCTAG	-0.597 z-score
GACGATATCAATCTCGAGACGTGCTAG	1.04 z-score
TTAGGTTTCCATATCCTTTAGTGCTAG	1.18 z-score
TTAGGTATCGGTCTCGGTTGGTGCTAG	6.61 z-score
TTAGGTTTCGGTTCCGTTTAGTGCTAG	10 z-score
GACGAACTGGGGTATCGAGACGTGCTA	0.197 z-score
TCACGTCTGATTTTGCTACTGTGCTAG	0.366 z-score

Study 2
Target: Prothrombin, mature alpha-thrombin (F2, Homo sapiens, UniProt P00734)
Technique: aptamer microarray, sandwich
Form: DNA with 2'F-ANA
Sample: in vitro
Concentration: 200 nM
Setting: whole 15-mer aptamer, many near background
Added: Cy3 exosite-II aptamer, 400 nM
Reading: higher = stronger binding
Sequence: GGTTGGTGTGGTTGG
Modification	mean fluorescence intensity
2'F-ANA at 1 2 4 5 8 10 11 12 13 15	47 a.u.
2'F-ANA at 8 9 10 13 14	111 a.u.
2'F-ANA at 4 6 9 10 11 13	83.1 a.u.
2'F-ANA at 1 3 4 5 6 8 9 13 14 15	59 a.u.
2'F-ANA at 3 4 7 9 10 11 14	239 a.u.
2'F-ANA at 3 5 7 8 13 15	103 a.u.
2'F-ANA at 1 2 3 4 6 9 10 12 13 15	64 a.u.
2'F-ANA at 1 2 6 7 9 11 12 13 14 15	57.7 a.u.
2'F-ANA at 2 3 4 7 8 10 12 13 14	182 a.u.
2'F-ANA at 1 2 3 4 5 8 11 13 15	52.2 a.u.
2'F-ANA at 1 2 3 4 5 12 13 14 15	67.1 a.u.
2'F-ANA at 7 8 9 11 12 14	252 a.u.
2'F-ANA at 1 3 4 6 9 10 11	66.7 a.u.
2'F-ANA at 1 5 8 10 11	49.9 a.u.
2'F-ANA at 3 7 8 15	1180 a.u.
2'F-ANA at 1 4 5 7 8 9 12 13 14	44.6 a.u.
2'F-ANA at 6 7 8 9 13	375 a.u.
2'F-ANA at 1 2 4 5 6 7 10 11 12 13	49 a.u.
2'F-ANA at 1 2 6 7 8 11 14	55.1 a.u.
2'F-ANA at 1 2 3 5 7 8 9 12 15	138 a.u.
2'F-ANA at 1 3 4	221 a.u.
2'F-ANA at 4 6 8 9 10 12 14	59.6 a.u.
2'F-ANA at 2 3 4 6 7 9 10 12 13	207 a.u.
2'F-ANA at 2 10 14	100 a.u.

Study 3
Target: RNA binding protein fox-1 homolog 2, RRM domain, GST-SBP tag (RBFOX2, Homo sapiens, UniProt O43251-10, residues 100-194)
Technique: RNA Bind-n-Seq
Form: RNA
Sample: in vitro
Concentration: 365 nM
Setting: natural RNA segment, single round, ends assumed
Reference: no-protein control
Reading: higher = stronger binding
Constant ends, left off below: GGGAGUUCUACAGUCCGACGAUC … UGGAAUUCUCGGGUGCCAA
Construct (chain): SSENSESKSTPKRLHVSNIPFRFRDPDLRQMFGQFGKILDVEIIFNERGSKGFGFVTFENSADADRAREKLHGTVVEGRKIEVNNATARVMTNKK
Sequence	RBNS enrichment (R)
ACAGCACGUUACUAAAGCAGUUACAUGCAUGUUGCGCUACCCUCAUCUGGUAUAGAGACCUGCAUUUUUACCUAACCUUCUAGACUCCUGAAAGGGAGUUAAAUGAAUUC	0.67
UGUCAGCAUUUCGGUCUGCAUAUCUGUGUGUCCGUAUCUGCGUUUGUGUGCGUGUACGUGUGCCCCUGUGUGUGGGCCCAGUUUUCAGGCAUGUAGAAUAAGCAUGGAGU	1.83
UGAGCAUUAUUCAGCAUUAGGGAAACCACACACUGGUGAGAGGUCUUUCAGUGUACUAAAAGGCAGAAAGGUCAUCACAACUUUAGUGUCAGAAUCUAUAGUGGUGGCAA	0.281
CUCCUGGCCGCAUGGGGUGAGCGCACAGGGGAGCCGCUGCUGCCAUCCCUUGCCUCCAUGUGUUUCUAUGCAGCCAUAGUUUGAGGACAGCCAGGCACCCACCUCAGGAC	0.558
CCCCGGCCCAGAUCCUGGCCGUCUCAUCCCAUACUUCUGUGGGGAAUCAGCCUCCUGCCACCCCCCCGGAAGGACCUCACUGUCUCCAGCUAUGCCCAGUGCUGCAUGGG	0.524
UUUCCUCUUGAGGAUACUUAGGGUAAACUGGAUCCUUCCUGCUCAAGGAUCCUCAUUUGUAUACCUAGUGGAAAGGACUCUGAACUCAGAGGAGUCACUGUUCCUUUUUU	0.428
GCCUGUCACUCCCUGUAUUUCUCCCUCCAUCCAGAGCUCGCUCCACACUCCUGCUCACCCAGCAAGUGCAGCCUCUGGCCCUCCUCUGCUUUUUCACUCCAUCCAGCUUA	0.86
AAAGUAAAAGUUCUAAAAUGAAGUCACACAGGACAAUUAUUCUUAUGCCUAAGUUAACAGUGGAUAAAAGACUUUUCUGUAAACAACUCCAGUAAUAAAUAUCAUGAACU	0.411
CUCAAGAUUGCAACAGGGAGCAGAACUUGACACUUACAUUUUUUUAAACCUGAUUUUUGUUUUCAAAUAAGAAUGUAAGCAUUUUACUUAAACUGUACUGUUUGCAAGUA	0.526
GCUGACCUCAGGGCCUGACAGUGUGGGACAGGCUCUUCUUUCCCAAAAUUAGGGAGCUCUUGACAGAAAGCAGUUCUGAUGCUUACAUCUGGAAUCUGAGGCAUCCUCUG	0.359
AAACACAAGUAUUCAUUAAUGUUUUAUAUCUUCACUAAAAUUCUAUAGUUAUGAAACUAUCAAUCAAGGUGUUAUAUUUCAGUCAGAAGUGAAAAUUUAUGAAGAGUAUU	0.418
AUGUAUUCAUUAUAGUUACAAUAUCCAACUAAAAAGUACGCUAUCUAGAAGUAUACCGACCAAAAUCUAGUAUUGACAUGAUCUUGACAGGCUGGACCUGUGAGAUAUGG	0.361

Study 4
Target: RING finger protein unkempt homolog, zinc fingers 1-6, GST-SBP tag (UNK, Homo sapiens, UniProt Q9C0B0, residues 30-357)
Chain of UniProt Q9C0B0 (30-357, looked up): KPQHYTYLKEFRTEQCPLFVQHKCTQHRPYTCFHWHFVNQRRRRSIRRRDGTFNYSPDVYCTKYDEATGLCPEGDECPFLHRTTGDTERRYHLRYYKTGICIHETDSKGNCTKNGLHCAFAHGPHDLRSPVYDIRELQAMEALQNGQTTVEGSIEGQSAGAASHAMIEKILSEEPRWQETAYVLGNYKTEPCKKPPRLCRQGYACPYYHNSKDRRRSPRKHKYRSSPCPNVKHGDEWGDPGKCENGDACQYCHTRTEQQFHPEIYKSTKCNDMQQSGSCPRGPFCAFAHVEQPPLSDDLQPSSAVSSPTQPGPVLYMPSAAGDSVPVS
Technique: RNA Bind-n-Seq
Form: RNA
Sample: in vitro
Concentration: not given
Setting: RNA with constant flanks, human and mouse sites, ends assumed
Reference: input RNA pool
Reading: higher = stronger binding
Constant ends, left off below: GGGAGUUCUACAGUCCGACGAUC … CAACAGAGGAUUGAGCAUCA
Sequence	bound/input enrichment [ratio]
GGAAUUCAACCUGUUAUAGAUAAAUUAAGGGAACAUGAAAAUUCAACACUAGACAGGCAUUUAGACUUUUUUGAAAUGCUCCGAAAUGAAGAUGAACUAGAAUUUGCCAAAAGAUUUGAA	2.39
AAAGCAAAAUUAGGGGAAAACUCAGCAACCAAUGUAUGCAGUCCAUCUUUGGGAAACAUCUCUAAUGUCGAUACAAAUGGGGAACAUUUAGAAAGUUAUGAGGCUGAGAUCUCCACUAGA	0.929
UGAAUUGUUACCUUAAAAUCUUAUCACUAACUUUAUUAGUAUUAUUAAUUAUUACGUUGGUUCCUACUGCUGGGAAGCUGUUCACAUCGCUCCUUAUACAGGAGCCAGCAAGCUGUAGGC	68
UCUUUGGCUUUUUCUCGGCACGUGGUGUCUCCACCAUUUCUUCUGCACAAAGACGUCUUCUGUUCACCCUGAACAUUUUAAAAUGCAGAAUUUUAUGUGACUGCUUUUUUGCCUCACAAU	0.144
CUACCUGAGCAGUCCCCAGGAGAAUUUGACUUUAAUGAAUUCUUUAACCUUGAUAAGGUGCCAUGCUUGGCUUCGAUGAUAGAAGAUGUUCUGGGGGAAGGAUCGGUCUCUGCCAGCCGC	0.203
AAUGAUGUACAUUACUGUGAAUUUUUAUACCACUCAUUUUUAAAAGGGCUGUCUUUUCAUUUUAGUUUUCCAUACUGUGGUGGUGUACACAGGAUAGAACACCCUUUUUUAAAACACAGU	1.85
GGCCCUUGACCGUGUGGCCUCUGCCUGGCUGUUUGGGGUCCUGCACGGCUUUCCCACCACCUGUAGCUCUUGUUGACCUGCCUGUUCACCUCAUGAGUGAAGCGUCUGCCUGGCAGUGGG	0.358
GCAGCAGCGGUCCCAUCGGCUGAAGUUCGGGGGGGGUGGGGCGCCGAGCGCGCGGGGUGGGGGGGGUCCUGGUCUUUGGCUUCUCGACUCGGUCCUGUUUCGACAGCGAACAUGUCGCGG	2.64
UUUCUAUUGCAGCAGACCAUGCUACGAGUGAAGGAUCCUAAGAAGUCACUGGAUUUUUAUACUAGAGUUCUUGGAAUGACGCUAAUCCAAAAAUGUGAUUUUCCCAUUAUGAAGUUUUCA	0.101
AUGCACCUGAAGAAACCUGGGGGCUUUGACAUAUCCUUGUUCUACAGAGAUAUCAUCAGCAUAGCAGAGGAUGAGGACCUCAGGGUUCACUUUGAGGAAUCCAGCAAGCUAGAAGACCUG	0.181
GCUGAAGUACCACACAUCAGAGAGAGAGUGAUGAGAGAGGGGCGCCACCUGUGCUUCCAGUUAGUAAGCCCAUUGGGAGUAGCCAUUUCUACUCUGAGUUACAUCAACAGGACAAAUCAG	0.314
